{"data": "Experimental data from different studies", "note": "Numbered parts are unrelated; each lists some results of a single study."}
{"data": "Set 1", "target": "Histone acetyltransferase KAT6A, both winged helices, GST fusion (KAT6A, Homo sapiens, UniProt Q92794, residues 1-181)", "technique": "protein binding microarray", "molecule type": "double-stranded DNA, one strand shown", "medium": "in vitro", "concentration": "not given", "notes": "8-mer, flanks averaged, mean of 2 arrays, mostly near background", "relative to": "not given", "direction": "higher = stronger binding", "Construct (chain)": "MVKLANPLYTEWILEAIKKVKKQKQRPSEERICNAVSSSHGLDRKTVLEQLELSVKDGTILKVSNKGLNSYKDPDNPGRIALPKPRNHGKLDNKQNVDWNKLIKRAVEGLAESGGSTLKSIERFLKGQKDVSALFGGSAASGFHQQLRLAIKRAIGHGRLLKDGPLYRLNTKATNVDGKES"}
{"Strand": "GCTCACCA", "E-score": -0.106}
{"Strand": "CCCCTACC", "E-score": -0.17}
{"Strand": "CCGTCCGC", "E-score": 0.318}
{"Strand": "AATTAGCA", "E-score": -0.0154}
{"Strand": "CGGACGAG", "E-score": 0.0697}
{"Strand": "CATGACTC", "E-score": -0.0973}
{"Strand": "GCGCTAGA", "E-score": 0.278}
{"Strand": "GCAAGCTA", "E-score": -0.0709}
{"Strand": "GACAAATA", "E-score": -0.114}
{"Strand": "CGGTCGCC", "E-score": 0.189}
{"Strand": "AATTACCA", "E-score": -0.0863}
{"Strand": "AAAGGTCC", "E-score": -0.0142}
{"Strand": "AACCCTTG", "E-score": 0.0252}
{"Strand": "TTACGTAA", "E-score": -0.21}
{"Strand": "GCTCGACC", "E-score": 0.0182}
{"Strand": "CGTATAAC", "E-score": 0.22}
{"Strand": "GAAGTGTC", "E-score": -0.118}
{"Strand": "CTGCACAC", "E-score": -0.156}
{"Strand": "AGGAGCTA", "E-score": -0.19}
{"Strand": "AGCTCCAT", "E-score": -0.192}
{"Strand": "GCAGTTAA", "E-score": 0.0423}
{"Strand": "GCATCCGC", "E-score": 0.115}
{"Strand": "AGCTCCTA", "E-score": -0.25}
{"Strand": "GCATTAGA", "E-score": 0.0227}
{"Strand": "AAAGACGG", "E-score": 0.109}
{"data": "Set 2", "target": "RNA binding protein fox-1 homolog 2, RRM domain, GST-SBP tag (RBFOX2, Homo sapiens, UniProt O43251-10, residues 100-194)", "technique": "RNA Bind-n-Seq", "molecule type": "RNA", "medium": "in vitro", "concentration": "365 nM", "notes": "natural RNA segment, single round, ends assumed", "relative to": "no-protein control", "direction": "higher = stronger binding", "all sequences stand within": "GGGAGUUCUACAGUCCGACGAUC … UGGAAUUCUCGGGUGCCAA", "Construct (chain)": "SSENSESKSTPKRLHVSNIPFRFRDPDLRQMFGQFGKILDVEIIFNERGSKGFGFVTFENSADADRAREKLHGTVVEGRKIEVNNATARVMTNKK"}
{"Strand": "AGCCCUUUACCUCUCAUGUUCCACUUUGAAAAGUUUGUAUUGACAUUUGGUUCAUAUCUUGUGUAUUGGUGCAUAAAAGAAAAAAAAACAGUGUUUUUACGUUUUCAGUU", "RBNS enrichment (R)": 0.535}
{"Strand": "CAGGCAGAGGGUCCUGCGCCCCCCAGCACUCCCCUGCCCUCUCCCACACCUCAGGUCCAGCGCACACUUCCUCCUUGCAUAGCAGGUGGGAGCAGACUUCUAAUGGACAG", "RBNS enrichment (R)": 0.615}
{"Strand": "CUCUUCUGGGACUGCUGUGAGGCAGAGGAAUGAUGGAGAAUCUAGUGUAGCAGCCUCCAGGCAGGAUUCAGCACAACACUGGGGAGUCACCCUUCCCUCGGGCCUCUGCC", "RBNS enrichment (R)": 0.286}
{"Strand": "AUGAGCCCCAACACUGCCCGCCUUACCGCCGCUGCCCCGCCCAUCACCAUCACCACUAACCCCGCCCUGCGGGCACCAGGAGGCCUGAGCCUCGGUUUGCCCAGGCCCCU", "RBNS enrichment (R)": 0.451}
{"Strand": "AACCUGGUCGAUAGCUCGAGAAAGAAUUUUUUCCAAGGAAAUGUCUCGGAUAUGGGUACUGUAUUUGAAAGCUGUUAGCUUUGUCAACACGCAUUGUCCUUGUCAUUUGG", "RBNS enrichment (R)": 0.38}
{"Strand": "CAGAUCUUUUAAAAACACUUGUCUCAUGUAAUUGAGACCCGCCACCAUCGCAGAUGAGUGACAAGAGAGAAGGCUGUCAACACUUCGGUACAUGGUGAUCUUAAAAACAC", "RBNS enrichment (R)": 0.322}
{"Strand": "CUGUGUAUGGAAGAGACAGGUGACCGCUCCAGGUUGGGUGCUCACAGAACCCUUUUCCUGACUCUCAUGGAAGAUGGUGGAAGGAAAAUAGACUGUCUCAUCAACCCUCC", "RBNS enrichment (R)": 0.664}
{"Strand": "CCUUCACGCUGUGGAAGCAGCCAAGGCACUUCCUCACCCCCUCAGCGCCACGGACCUCUCUGGGGAGUGGCCGGAAAGCUCCCGGGCCUCUGGCCUGCAGGGCAGCCCAA", "RBNS enrichment (R)": 0.334}
{"Strand": "UCCACCCCCUGAAUGGGUGUGGCUUGUGGCCAUAUUGACAGACCAAUCUAUGGGACUAGGGGGAUUGGCAUCAAGUUGACACCCUUGAACCUGCUAUGGCCUUCAGCAGU", "RBNS enrichment (R)": 0.717}
{"Strand": "GACUGGCCCUUCAAGGAGGUGGAAGUGGUUUUCUCUGUGUUUGAGUCAUUGAGUAUUGAAGCCAUGACCUGGACUUCUGAAGGCUGUGACUUCACUAGAGCUAAGACACU", "RBNS enrichment (R)": 0.715}
{"Strand": "CCCUGGUCUUUGUAGCCAUCUUUGUCCUCUGAAAUGAGGAACCGAUCCUCUUUAAAGUUCCCAAAUAGUUUUCUACCAUAUUUAGAAAGUAUACGUUUAGCCCAGAGGUG", "RBNS enrichment (R)": 0.32}
{"Strand": "UGGACCAAAGGCAACCCCUGCAGUGUCUGUGAAAUGAUUUGAAGACCGUUCAGGCCACGCAAUAUGAGAAUGCAGUUUUUGUAGGAUUACAAAAAAAAAAAAAAGCCAUU", "RBNS enrichment (R)": 0.482}
{"data": "Set 3", "target": "Fragile X messenger ribonucleoprotein 1, C-terminal low-complexity region (Fmr1, Mus musculus, UniProt P35922)", "technique": "RNA Bind-n-Seq", "molecule type": "RNA", "medium": "in vitro", "concentration": "200 nM", "notes": "whole 134-nt RNA, ends assumed", "together with": "150 mM KCl", "relative to": "input library", "direction": "higher = stronger binding", "all sequences stand within": "GGGAGUUCUACAGUCCGACGAUC … UGGAAUUCUCGGGUGUCAAGG"}
{"Strand": "AAGUCCUGUGCUACACAUCGUAUGUACCGAAUCGGGGAAAGGGGUGGGGUUUGGGGAAAGUAUUAUGUUACGCCGUUCGGAUCUGCACUU", "log2 enrichment": 1.06}
{"Strand": "UCCUCAAGUCCUGUGCUACACAUCGUAUGUACCGAAUCGGGGAGGAGGGAGGAAAGUAUUAUGUUACGCCGUUCGGAUCUGCACUUCCAG", "log2 enrichment": 0.503}
{"Strand": "UGCCUACGUAAUUUUUUAUCUUGAAAUAUUCAAAAUUAGGAGCCAGAUGACCAAGAUGCUCCAGAUGAACAUGAGUCGCCUCCACCUGAA", "log2 enrichment": -0.119}
{"Strand": "CUGUGCUACACAUCGUAUGUACCGAAUCGGGGCCCCCCCGGGCCCCCCCGGCCCCCCCGGGAAAGUAUUAUGUUACGCCGUUCGGAUCUG", "log2 enrichment": -1}
{"Strand": "AAGUCCUGUGCUACACAUCGUAUGUACCGAAUCGGGGUUUGGGGAGGGGUUUGGGGAAAGUAUUAUGUUACGCCGUUCGGAUCUGCACUU", "log2 enrichment": 0.838}
{"Strand": "UCCUCAAGUCCUGUGCUACACAUCGUAUGUACCGAAUCGGGCGGCGGCGGGAAAGUAUUAUGUUACGCCGUUCGGAUCUGCACUUCCAGC", "log2 enrichment": -0.17}
{"Strand": "UGGCCCUGGUGGCAUGCGGGGAGGAAGAGCUGGCCUCAUGGAUCGUGGUGGUCCCGGUGGAAUGUUCAGAGGUGGCCGUGGUGGAGACAG", "log2 enrichment": 0.0186}
{"Strand": "UCAAGUCCUGUGCUACACAUCGUAUGUACCGAAUCGGUGGUUUUUGGAAAAAGGAAAGUAUUAUGUUACGCCGUUCGGAUCUGCACUUCC", "log2 enrichment": -0.461}
{"Strand": "CCUGUGCUACACAUCGUAUGUACCGAAUCGGGGAAAAAAAGGGGAAAGGGGAAAAAGGGGAAAGUAUUAUGUUACGCCGUUCGGAUCUGC", "log2 enrichment": 0.0667}
{"Strand": "GUCCUGUGCUACACAUCGUAUGUACCGAAUCGGGGAGGGGAAAAAAAGGGGAAAGGGGAAAGUAUUAUGUUACGCCGUUCGGAUCUGCAC", "log2 enrichment": 0.442}
{"data": "Set 4", "target": "RING finger protein unkempt homolog, zinc fingers 1-6, SBP tag (UNK, Homo sapiens, UniProt Q9C0B0, residues 30-357)", "technique": "RNA Bind-n-Seq", "molecule type": "RNA", "medium": "in vitro", "concentration": "100 nM", "notes": "RNA with constant flanks, vertebrate orthologous sites, ends assumed", "relative to": "input RNA pool", "direction": "higher = stronger binding", "all sequences stand within": "GGGAGUUCUACAGUCCGACGAUC … CAACAGAGGAUUGAGCAUCA", "sequence of UniProt Q9C0B0 (30-357, looked up)": "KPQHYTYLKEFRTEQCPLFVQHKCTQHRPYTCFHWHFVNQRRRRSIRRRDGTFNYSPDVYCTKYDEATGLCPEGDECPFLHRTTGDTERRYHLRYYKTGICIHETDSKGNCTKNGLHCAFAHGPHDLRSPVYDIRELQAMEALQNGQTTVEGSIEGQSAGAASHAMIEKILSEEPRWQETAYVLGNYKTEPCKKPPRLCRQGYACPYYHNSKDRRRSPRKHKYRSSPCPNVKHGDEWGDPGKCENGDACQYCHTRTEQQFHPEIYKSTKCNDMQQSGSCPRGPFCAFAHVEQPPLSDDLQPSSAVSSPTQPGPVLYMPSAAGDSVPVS"}
{"Strand": "CCCCGUUUUUAAAUGCUCUUUUGAUGCUUCCAGCAGCACCAUUUGUACAGUUUUUCUCUAAAAACAAAAAUGUUGAUUCAAAUUUCUUGUAUUUAAGUUUAAAUUGUUACAACAUUUUAG", "bound/input enrichment [ratio]": 0.193}
{"Strand": "UUACAGUCAUUGAUGGACUCUAUUUUUUUAUUAUUACUUGGACCUUGGUCGUUUUUAUACUAGCAAAAUGUCUUGUUUUAAUUUGUGUUUUUUUGGGGGGAGGGAGUGAACUUGCUGAUU", "bound/input enrichment [ratio]": 2.47}
{"Strand": "GCCUUAGAAGUGAGCUGACAGGGCAGUUAGGUGGGCUCCCAUCUCAAGGAAAACCCUAAACCGAUUCCUUAACCAGCUAGCUAGACACUGGUGGUUAGCUUUUCAGUUUGUUUUCAUUUU", "bound/input enrichment [ratio]": 0.294}
{"Strand": "GGGACGCUUUGAUGUAAAGAUUGAAGUUAAGAGCUGAUCACAAGCACAAAUCUUUCCCACUAGCCAUUUAAAGAGUUAAGAAAAAGAUACAAAAAACCUACUAGUCUUGAACAAACUGUC", "bound/input enrichment [ratio]": 1.05}
{"Strand": "UUCUGCUGAUGCACUAUAUCUGAGGCAUACGCUAAACUAAGUGUAAUUUAGAAGAUUUUAUAGUUUAUUUUGAUGAGGUGAGAAUUAUCCAGAUUGUAGUCGGGAAUAUAUUGUCUUUUA", "bound/input enrichment [ratio]": 1.27}
{"Strand": "CUCUAGAUCUUAACAACCGACGCUCCUAAAAGAUUUAGAAAAAAAGUUUACAACAUAAUCUAGUUUACGAAGAAGUCUUGUGCUAGAAUACUUUUUAAAAAGUAUUUUUGAAUACCAUUA", "bound/input enrichment [ratio]": 0.51}
{"Strand": "UUGCUUUGUACAGGGCCUUCUCUGUGCUAACUUGUUGUGGUUAUAAAGCAAUUAGCAAAACAGCUUACAUUUGUAUUUAUUUUCUAUUCCAUACCUCUCUGCCCCAUGUGUUUUCUCUUC", "bound/input enrichment [ratio]": 0.78}
{"Strand": "AAAUUUAUUUCAUGCCCUGGACUCCCUAUCGUACUGAUACUUUAAUAGAAUAUGCAUCUUUAGAAGACUUCCAAAACAGUCGCCAAACAACAACCUAUAAACUUCCAAAUCGAGUAGAUG", "bound/input enrichment [ratio]": 1.66}
{"Strand": "AAAUGCGAUGGUUGAAGGCUCUGAGCUCAAAAAGAUUCGAUCCAAUUCCAGAGUGUAUCACCGAUAUUUUCUUUUAGAUGCAGAUAUGCAGUCCCUACGCUGGGAACCUUCAAAAAAGGA", "bound/input enrichment [ratio]": 0.318}
{"Strand": "CUGUUGUUAAGCACUGUGUUCCAGACCGUGUCUGACUUUAGUGUAACCUAGGAGAUUUUAUAGUUUUAUUUUAAUGAAACCCUGCUUGGCGCCGAACAGCGGGGAGAGCAGUGUCUUCUA", "bound/input enrichment [ratio]": 0.917}
{"Strand": "CAGUUUGUAUGUACAUUAUUCACAUUCCUCUCUGUUGUGUUUGGGGGAAAAAAAGACAUUUUAGCCUUUUUUAAGGUUAUUGAUUUAAUUUCAUGUUAUUUGGUUGCAUGAAGUUGCCCU", "bound/input enrichment [ratio]": 0.425}
